Measured values pooled from the literature.
Each line is one published result; not all experiments were run side by side. “And” joins repeats or separate records; there may be more than shown.
CA9: Carbonic anhydrase 9 (CA9, Homo sapiens, UniProt Q16790)
DYRK1A: Dual specificity tyrosine-phosphorylation-regulated kinase 1A (DYRK1A, Homo sapiens, UniProt Q13627)
CDK4 with cyclin D1: Cyclin-dependent kinase 4, with cyclin D1 (CDK4, Homo sapiens, UniProt P11802)
Chain of UniProt P11802 (whole entry, looked up): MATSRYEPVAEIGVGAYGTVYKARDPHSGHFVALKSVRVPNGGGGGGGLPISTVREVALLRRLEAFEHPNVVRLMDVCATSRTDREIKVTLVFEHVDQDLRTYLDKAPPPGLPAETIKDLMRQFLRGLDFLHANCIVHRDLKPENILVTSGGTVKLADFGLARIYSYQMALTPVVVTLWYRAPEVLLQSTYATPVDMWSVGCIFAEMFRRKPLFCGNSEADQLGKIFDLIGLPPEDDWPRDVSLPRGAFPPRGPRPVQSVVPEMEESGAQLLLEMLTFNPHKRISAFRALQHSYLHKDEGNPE
rep main protease: Replicase polyprotein 1ab, main protease (rep, Porcine epidemic diarrhea virus, UniProt P0C6Y4)
PIK3CD: Phosphatidylinositol 4,5-bisphosphate 3-kinase catalytic subunit delta isoform (PIK3CD, Homo sapiens, UniProt O00329)
Chain of UniProt O00329 (whole entry, looked up): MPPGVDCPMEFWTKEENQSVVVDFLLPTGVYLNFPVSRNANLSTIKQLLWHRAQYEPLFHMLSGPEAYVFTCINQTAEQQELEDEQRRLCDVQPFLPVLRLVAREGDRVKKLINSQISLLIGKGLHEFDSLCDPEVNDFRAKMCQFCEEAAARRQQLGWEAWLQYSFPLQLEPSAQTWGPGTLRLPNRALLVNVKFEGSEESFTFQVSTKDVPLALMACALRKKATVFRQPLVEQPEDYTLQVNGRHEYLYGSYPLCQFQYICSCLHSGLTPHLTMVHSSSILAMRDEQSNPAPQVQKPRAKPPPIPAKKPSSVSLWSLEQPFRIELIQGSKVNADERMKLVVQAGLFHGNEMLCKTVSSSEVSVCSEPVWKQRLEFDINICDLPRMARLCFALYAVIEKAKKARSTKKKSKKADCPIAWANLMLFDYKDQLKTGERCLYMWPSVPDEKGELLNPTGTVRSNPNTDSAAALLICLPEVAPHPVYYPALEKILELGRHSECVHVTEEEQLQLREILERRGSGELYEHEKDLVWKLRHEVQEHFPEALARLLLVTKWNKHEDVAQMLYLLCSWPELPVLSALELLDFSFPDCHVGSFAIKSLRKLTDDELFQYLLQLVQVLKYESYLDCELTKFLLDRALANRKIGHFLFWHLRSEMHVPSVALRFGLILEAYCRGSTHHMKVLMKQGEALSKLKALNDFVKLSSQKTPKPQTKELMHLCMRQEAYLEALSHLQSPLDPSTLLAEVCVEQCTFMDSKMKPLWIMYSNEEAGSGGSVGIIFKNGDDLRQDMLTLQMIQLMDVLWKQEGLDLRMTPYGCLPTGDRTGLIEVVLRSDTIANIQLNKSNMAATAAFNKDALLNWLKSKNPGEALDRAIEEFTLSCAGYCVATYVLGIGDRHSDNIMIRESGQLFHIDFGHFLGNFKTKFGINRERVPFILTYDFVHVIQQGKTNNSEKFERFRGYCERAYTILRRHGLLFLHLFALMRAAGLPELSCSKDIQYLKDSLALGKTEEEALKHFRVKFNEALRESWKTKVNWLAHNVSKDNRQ
AMY2: Pancreatic alpha-amylase (AMY2, Sus scrofa, UniProt P00690)
Chain of UniProt P00690 (whole entry, looked up): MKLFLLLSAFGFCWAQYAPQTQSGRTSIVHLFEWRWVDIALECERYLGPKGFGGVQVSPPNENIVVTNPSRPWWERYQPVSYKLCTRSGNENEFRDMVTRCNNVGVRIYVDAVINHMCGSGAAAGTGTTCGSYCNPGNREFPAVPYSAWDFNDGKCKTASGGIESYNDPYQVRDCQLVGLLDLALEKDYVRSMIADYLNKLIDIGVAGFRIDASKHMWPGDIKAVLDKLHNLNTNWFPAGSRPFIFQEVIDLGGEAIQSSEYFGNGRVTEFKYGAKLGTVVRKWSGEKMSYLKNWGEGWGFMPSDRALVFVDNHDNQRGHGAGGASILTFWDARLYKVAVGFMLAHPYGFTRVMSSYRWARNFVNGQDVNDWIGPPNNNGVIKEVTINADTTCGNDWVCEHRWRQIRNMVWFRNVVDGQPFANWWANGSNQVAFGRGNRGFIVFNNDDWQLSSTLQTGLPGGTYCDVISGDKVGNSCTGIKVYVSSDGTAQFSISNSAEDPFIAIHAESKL
PIK3CG: Phosphatidylinositol 4,5-bisphosphate 3-kinase catalytic subunit gamma isoform (PIK3CG, Homo sapiens, UniProt P48736)
FLT3 ITD: Receptor-type tyrosine-protein kinase FLT3 (FLT3, Homo sapiens, UniProt P36888, ITD)
CHEK1: Serine/threonine-protein kinase Chk1 (CHEK1, Homo sapiens, UniProt O14757)
Chain of UniProt O14757 (whole entry, looked up): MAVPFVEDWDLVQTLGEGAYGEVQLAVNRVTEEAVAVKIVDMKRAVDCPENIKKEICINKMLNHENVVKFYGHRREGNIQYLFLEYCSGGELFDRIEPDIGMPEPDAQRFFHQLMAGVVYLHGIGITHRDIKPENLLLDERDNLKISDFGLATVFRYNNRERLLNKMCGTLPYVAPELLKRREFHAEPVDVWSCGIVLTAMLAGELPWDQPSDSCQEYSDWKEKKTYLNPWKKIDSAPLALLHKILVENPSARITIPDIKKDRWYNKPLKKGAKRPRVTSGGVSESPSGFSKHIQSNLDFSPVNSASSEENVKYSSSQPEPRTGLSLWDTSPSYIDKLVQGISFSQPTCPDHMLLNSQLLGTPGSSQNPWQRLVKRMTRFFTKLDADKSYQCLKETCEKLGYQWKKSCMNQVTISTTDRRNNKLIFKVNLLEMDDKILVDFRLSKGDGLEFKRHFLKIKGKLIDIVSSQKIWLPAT
PIK3CA: Phosphatidylinositol 4,5-bisphosphate 3-kinase catalytic subunit alpha isoform (PIK3CA, Homo sapiens, UniProt P42336)
Chain of UniProt P42336 (whole entry, unmodified, looked up): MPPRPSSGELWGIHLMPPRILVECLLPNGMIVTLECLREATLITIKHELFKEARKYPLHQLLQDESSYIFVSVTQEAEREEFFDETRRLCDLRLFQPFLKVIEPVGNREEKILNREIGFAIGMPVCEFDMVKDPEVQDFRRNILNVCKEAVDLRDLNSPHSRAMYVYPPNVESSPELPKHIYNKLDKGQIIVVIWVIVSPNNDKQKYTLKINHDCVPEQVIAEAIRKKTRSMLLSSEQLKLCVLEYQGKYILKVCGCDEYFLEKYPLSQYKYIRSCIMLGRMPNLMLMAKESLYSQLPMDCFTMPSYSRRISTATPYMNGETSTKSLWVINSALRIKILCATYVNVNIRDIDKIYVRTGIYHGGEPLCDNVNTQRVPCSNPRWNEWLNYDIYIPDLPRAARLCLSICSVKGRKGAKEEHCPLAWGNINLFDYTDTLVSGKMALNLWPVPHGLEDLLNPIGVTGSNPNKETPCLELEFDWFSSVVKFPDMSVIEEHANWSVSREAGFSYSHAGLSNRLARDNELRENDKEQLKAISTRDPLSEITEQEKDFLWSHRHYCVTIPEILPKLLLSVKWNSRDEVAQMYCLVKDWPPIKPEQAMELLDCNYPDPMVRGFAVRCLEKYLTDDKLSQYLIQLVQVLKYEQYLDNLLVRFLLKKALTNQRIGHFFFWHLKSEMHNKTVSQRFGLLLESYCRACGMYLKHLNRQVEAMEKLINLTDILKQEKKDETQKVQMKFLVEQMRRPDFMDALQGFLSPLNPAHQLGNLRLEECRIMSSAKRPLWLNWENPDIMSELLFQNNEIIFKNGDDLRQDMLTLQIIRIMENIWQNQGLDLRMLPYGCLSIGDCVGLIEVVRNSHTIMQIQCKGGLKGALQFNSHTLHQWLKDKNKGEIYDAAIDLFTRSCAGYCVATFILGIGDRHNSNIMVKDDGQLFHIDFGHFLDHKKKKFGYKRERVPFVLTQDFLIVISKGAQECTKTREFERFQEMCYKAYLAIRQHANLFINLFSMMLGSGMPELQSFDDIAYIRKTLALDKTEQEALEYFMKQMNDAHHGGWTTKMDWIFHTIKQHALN
Chain of UniProt P08684 (whole entry, looked up): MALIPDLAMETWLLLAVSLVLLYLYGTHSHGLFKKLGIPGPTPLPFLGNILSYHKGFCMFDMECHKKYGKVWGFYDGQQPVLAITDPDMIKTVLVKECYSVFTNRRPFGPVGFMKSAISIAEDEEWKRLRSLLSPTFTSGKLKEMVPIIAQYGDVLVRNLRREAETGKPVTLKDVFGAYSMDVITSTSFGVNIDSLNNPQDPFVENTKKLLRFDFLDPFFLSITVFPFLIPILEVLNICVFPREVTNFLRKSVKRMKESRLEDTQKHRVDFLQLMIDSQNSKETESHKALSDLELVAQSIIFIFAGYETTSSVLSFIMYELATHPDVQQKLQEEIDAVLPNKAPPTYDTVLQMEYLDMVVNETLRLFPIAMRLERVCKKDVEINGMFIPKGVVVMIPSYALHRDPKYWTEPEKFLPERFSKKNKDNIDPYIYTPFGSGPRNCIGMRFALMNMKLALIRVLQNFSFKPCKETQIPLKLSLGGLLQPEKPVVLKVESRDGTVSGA

`COc1cc(CN(CCN)C(=O)c2cccs2)ccc1OCc1ccccc1` has an IC50 of 12 nM (Transient receptor potential cation channel subfamily M member 8 (TRPM8, Homo sapiens, UniProt Q7Z2W7); ion current, antagonist, patch clamp).
The IC50 of `O=C(CSc1nc2ccccc2cc1C=Nn1c(S)nnc1-c1ccccc1)Nc1cccc(Cl)c1` is reported as 28800 nM (PPO3 (Agaricus bisporus, UniProt C7FF04); enzyme activity, inhibitor).
With `Cc1cc(C(=O)CN2CCN(C(=O)c3ccc(-c4cn(C)nn4)c(F)c3)CC2)c(C)n1-c1ccc(S(N)(=O)=O)cc1` the IC50 was 34.7 nM (CA9; enzyme activity, inhibitor).
For `OC1CCCN(c2nccc(-c3cnn4ncccc34)n2)C1` (stereo not drawn), the IC50 was 309 nM (DYRK1A; cell-free assay, TR-FRET).
The IC50 of `CN(C)C(=O)c1cc2cnc(Nc3cncc(-c4ccc5c(=O)cc(N6CCOCC6)oc5c4)c3)nc2n1C1CCCC1` is reported as 5.9 nM (CDK4 with cyclin D1; enzyme activity, inhibitor, radiometric).
The IC50 of `CC(C)(C)C(=O)COC(=O)C=Cc1ccc(Nc2cccc(S(N)(=O)=O)c2)cc1` is reported as 150 nM (CA9; enzyme activity, inhibitor).
For `O=C(NCc1cc(O)c(O)c(Br)c1)c1ccccc1`, the IC50 was 6210 nM (rep main protease; enzyme activity, inhibitor, FRET).
The IC50 of `Cc1cc(S(N)(=O)=O)ccc1CNC(=O)N1CCN(CC(=O)NC2CCC(C)CC2)CC1` (stereo not drawn) is reported as 2390 nM (CA9; enzyme activity, inhibitor).
`Cc1cnc(-c2ccc(-c3ccc(NC(=O)Nc4c(F)cc(F)cc4F)cc3F)c3c2C(=O)NC3)[nH]1` has an IC50 of 0.7 nM (Tyrosine-protein kinase Blk (BLK, Homo sapiens, UniProt P51451); enzyme activity, inhibitor).
With `CC(C)c1cccc(C(C)C)c1N=C1C(=O)N(Cc2ccc(Br)cc2)c2ccccc21` the IC50 was 315 nM (PIK3CD; enzyme activity, inhibitor, ADP detection).
For `Cc1nc(SCC(=O)Nc2ccc(S(N)(=O)=O)cc2)[nH]c1Cc1ccc(O)cc1`, the IC50 was 63 nM (CA9; enzyme activity, inhibitor).
`Clc1ccc(/C=N/N=C/c2ccc(Cl)cc2Cl)c(Cl)c1` gave an IC50 of 321000 nM (AMY2; enzyme activity, inhibitor).
With `Cn1nc2c(=O)n(C3CC3)cnc2c1[C@](O)(c1cnc(C(F)(F)F)c(Cl)c1)C(F)(F)F` the IC50 was greater than 30000 nM (Dihydroorotate dehydrogenase (quinone), mitochondrial (Rattus norvegicus, UniProt Q63707); enzyme activity, inhibitor, absorbance).
For `NS(=O)(=O)c1cc(NC(=O)Cc2ccc(NC(=O)c3ccc(Br)o3)cc2)ccc1F`, the IC50 was 180 nM (CA9; enzyme activity, inhibitor).
For `COc1cc2ncnc(N(C)c3ccc4c(c3)/C(=C/c3ccccc3)C(=O)N4C)c2cc1OC` (mixture of isomers), the IC50 was 91.4 nM (PIK3CG; enzyme activity, inhibitor, ADP detection).
For `CN(C)CCNC(=O)c1ccc(-c2nc3ccc4[nH]ncc4c3c3c2CC(C)(C)CC3)cc1`, the IC50 was 104 nM (FLT3 ITD; enzyme activity, inhibitor).
For `COc1cc(-c2ccc3c(c2)Nc2ccc(CC(=O)N4CCOCC4)cc2NC3=O)ccc1[N+](=O)[O-]`, the IC50 was 5.76 nM (CHEK1; enzyme activity, inhibitor).
For `NCCCCN(Cc1nc2ccccc2[nH]1)[C@H]1CCCc2cccnc21`, the IC50 was 4.88 nM (C-X-C chemokine receptor type 4 (Mus musculus, UniProt P70658); ligand displacement in cells, flow cytometry).
`c1cnn2ncc(-c3ccnc(N4CCCCC4)n3)c2c1` has an IC50 of 479 nM (DYRK1A; cell-free assay, TR-FRET).
The IC50 of `Cc1cc2c(OCC(O)CNC(C)(C)C)cccc2[nH]1` (stereo not drawn) is reported as 0.7 nM (Beta-2 adrenergic receptor (ADRB2, Homo sapiens, UniProt P07550); calcium signal, antagonist, fluorescence).
`Cc1ccc(CN2C(=O)C(=Nc3cccc(Cl)c3)c3ccccc32)cc1` gave an IC50 of 71 nM (PIK3CD; enzyme activity, inhibitor, ADP detection).
`C=CC(=O)N1CCC(COCC(=O)N2CCN(c3nc(-c4cnc(N)nc4C(F)F)nc(N4CCOC[C@@H]4C)n3)CC2)CC1` has a remaining binding of 89% (Cyclin-dependent kinase-like 5 (CDKL5, Homo sapiens, UniProt O76039); binding, competition with immobilised ligand; 1 µM).
With `O=C1Nc2ccccc2C1=Nc1cccc(Cl)c1` the IC50 was 511 nM (PIK3CA; enzyme activity, inhibitor, ADP detection).
`N#C[C@@]12C[C@@H]1[C@@H](n1cnc3c(N[C@@H](C4CCC4)C4CC4)nc(I)nc31)[C@H](O)[C@@H]2O` has an IC50 of > 20000 nM and 35600 nM (Cytochrome P450 3A4 (CYP3A4, Homo sapiens, UniProt P08684); enzyme activity, inhibitor).
`CC(C)(C)c1ccc(NC(=O)Nc2cnc(C#N)cn2)cc1` has an IC50 of greater than 10000 nM (CHEK1; enzyme activity, inhibitor).
With `Clc1ccc(C2(c3ccc(-c4cn[nH]c4)cc3)CCNCC2)cc1` the IC50 was 107 nM (Serine/threonine-protein kinase LATS1 (LATS1, Homo sapiens, UniProt O95835); enzyme activity, inhibitor, radiometric).
For `COc1cc(-c2ccc3c(c2)Nc2ccc(NC(=O)c4ccccn4)cc2NC3=O)ccc1[N+](=O)[O-]`, the IC50 was 66.6 nM (CHEK1; enzyme activity, inhibitor).
For `O=C(NCc1cc(O)c(O)c(Br)c1)c1ccc(Cl)s1`, the IC50 was 2290 nM (rep main protease; enzyme activity, inhibitor, FRET).
The IC50 of `Cc1ccc(-c2ccccc2C(=O)NC[C@@]2(C3CC3)NC(=O)NC2=O)cc1` is reported as 60 nM (A disintegrin and metalloproteinase with thrombospondin motifs 7 (Homo sapiens, UniProt Q9UKP4); enzyme activity, inhibitor, FRET).
For `Brc1ccccc1/C=N/N=C/c1ccccc1Br`, the IC50 was 284000 nM (AMY2; enzyme activity, inhibitor).
`Cc1cccc(N=C2C(=O)Nc3ccccc32)c1` has an IC50 of 290 nM (PIK3CA; enzyme activity, inhibitor, ADP detection).
`Clc1cccc(/C=N/N=C/c2cccc(Cl)c2)c1` has an IC50 of 368000 nM (AMY2; enzyme activity, inhibitor).
With `CN1CCN(c2ccc(Nc3ncc4cc(C#N)c(=O)n(C5CCCC5)c4n3)cc2)CC1` the IC50 was 541 nM (Serine/threonine-protein kinase MARK1 (MARK1, Homo sapiens, UniProt Q9P0L2); enzyme activity, inhibitor).
`COC(=O)Cc1ccc2c(c1)NC(=O)c1ccc(-c3cccc(C#N)c3)cc1N2` has an IC50 of 192 nM (CHEK1; enzyme activity, inhibitor).
`O=C1C(=Nc2ccc(Cl)cc2Br)c2ccccc2N1Cc1ccc(Br)cc1` has an IC50 of 61.1 nM (PIK3CD; enzyme activity, inhibitor, ADP detection).
The IC50 of `CN(C)C(=O)c1cc2cnc(Nc3cncc(-c4cccc5c(=O)cc(N6CCOCC6)oc45)c3)nc2n1C1CCCC1` is reported as 1960 nM (PIK3CD; enzyme activity, inhibitor, radiometric).
For `NS(=O)(=O)c1ccc(CNC(=S)N(Cc2ccc(S(N)(=O)=O)cc2)CC(F)(F)F)cc1`, the IC50 was 19.1 nM (CA9; enzyme activity, inhibitor).
For `O=Cc1ccc(-c2ccc(-c3[nH]nc4c3Cc3cc(CNC5CCC(O)CC5)ccc3-4)s2)s1` (stereo not drawn), the IC50 was 949 nM (CHEK1; enzyme activity, inhibitor).
With `Cc1nn(C)c2ncc(C(=O)NCc3ccccc3)c(Cl)c12` the IC50 was greater than 250000 nM (60 kDa heat shock protein, mitochondrial (Homo sapiens, UniProt P10809); ATPase activity, inhibitor).
For `N#Cc1cnc(NC(=O)Nc2cc(Br)ccc2N2CCCCC2)cn1`, the IC50 was 11.5 nM (CHEK1; enzyme activity, inhibitor).
For `CCCCC(=O)Nc1ccc(-c2ccc3ncn(CCC)c(=O)c3c2)cn1`, the remaining binding was 100% (Phosphatidylinositol 4,5-bisphosphate 3-kinase catalytic subunit alpha isoform (PIK3CA, Homo sapiens, UniProt P42336, Q546K); binding, competition with immobilised ligand; 0.5 µM).
`Cc1nc(Nc2ccc3c(c2)/C(=C/c2ccccc2C)C(=O)N3)c2ccccc2n1` has an IC50 of 103 nM (PIK3CG; enzyme activity, inhibitor, ADP detection).
`Cc1n[nH]c2ccc3nc(-c4ccc(C(=O)NCCN(C)C)cc4F)c4c(c3c12)CCCCC4` has an IC50 of 36 nM (FLT3 ITD; enzyme activity, inhibitor).
The IC50 of `COc1ccc(Cl)cc1C(=O)NCCc1ccc(S(=O)(=O)NC(=O)NC2CCCCC2)cc1` is reported as 6300 nM (Solute carrier family 22 member 6 (SLC22A6, Homo sapiens, UniProt Q4U2R8, Y230F); transporter uptake, inhibitor, fluorescence).
`COc1ccc(-c2ccccc2)cc1NC(=O)Nc1cnc(C#N)cn1` gave an IC50 of greater than 10000 nM (CHEK1; enzyme activity, inhibitor).
The IC50 of `CN(C)C(=O)c1cc2cnc(Nc3cc(C(F)(F)F)c(-c4cccc5c(=O)cc(N6CCOCC6)oc45)cn3)nc2n1C1CCCC1` is reported as greater than 10000 nM (CDK4 with cyclin D1; enzyme activity, inhibitor, radiometric).
`COc1ccc(COc2cc3c(cc2OC)-c2n[nH]c(-c4ccc(Br)cc4)c2C3)cc1` has an IC50 of greater than 10000 nM (CHEK1; enzyme activity, inhibitor).
The IC50 of `O=C1Nc2ccccc2C1=Nc1ccccc1I` is reported as 369 nM (PIK3CD; enzyme activity, inhibitor, ADP detection).
For `Cc1n[nH]c2ccc3nc(-c4ccc(C(=O)NCCN(C)C)cc4)c4c(c3c12)CCCC4`, the IC50 was 54 nM (Receptor-type tyrosine-protein kinase FLT3 (FLT3, Homo sapiens, UniProt P36888); enzyme activity, inhibitor).
`CC(C)C[C@@H]1CN(c2nccc(-c3cnn4ncccc34)n2)CCN1` has an IC50 of 309 nM (DYRK1A; cell-free assay, TR-FRET).
`CC(=O)Nc1ccc(Cn2c(C(=O)Nc3ccc(S(N)(=O)=O)cc3)cc3sccc32)cc1` has an IC50 of 7.41 nM (CA9; enzyme activity, inhibitor).
For `Cc1ccccc1C(=O)NCc1cc(O)c(O)c(Br)c1`, the IC50 was 3150 nM (Replicase polyprotein 1ab, papain-like protease (rep, Porcine epidemic diarrhea virus, UniProt P0C6Y4); enzyme activity, inhibitor, FRET).
`NS(=O)(=O)c1ccc(Br)c(C(=O)Nc2cccc(NC(=O)C3CCCCC3)c2)c1` has an IC50 of 53 nM (CA9; enzyme activity, inhibitor).
`O=C(CCc1ccc(Cl)cc1)N1C(=O)C(=Nc2ccc(Cl)cc2Br)c2ccccc21` gave an IC50 of 324 nM (PIK3CA; enzyme activity, inhibitor, ADP detection).
